Experimental data pooled from the literature.
Lines come from different studies, so protocols differ. ± marks the error that the study gave.

The inhibition of `CCCCC[C@H](CC(=O)NO)C(=O)N[C@H](C(=O)N1CCC[C@H]1CO)C(C)C` is reported as 32.3 ± 24.3% (U-937; cell proliferation; 13 µM, day 4).
`C[C@@H](Oc1cc(-c2cnn(C3CCNCC3)c2)cnc1N)c1c(Cl)ccc(F)c1Cl` gave an inhibition of 20.6% (NCI-H2228; cell growth or viability, MTT; 0.008 µg/mL, 72 h).
For `O=[N+]([O-])c1ccc2[nH]c(-c3ccccc3)cc2c1`, the inhibition was 66.1% (RAW264.7; NO release, inhibitor, Griess; 50 µM, 20 h, LPS-stimulated).
`C[C@H]1[C@H](C)CC[C@]2(C)CC[C@]3(C)C(=CC[C@@H]4[C@@]5(C)CC[C@@H](O)[C@](C)(C(=O)O)[C@@H]5CC[C@]43C)[C@H]12` gave an inhibition of 28% (WI-38; TNF-α release, inhibitor, ELISA; 10 µM, LPS-stimulated).
For `CC(C)C[C@H](NC(=O)[C@@H](O)[C@H](N)Cc1ccccc1)C(=O)O`, the inhibition was 39.8% (U-937; cell growth or viability; 145 µM).
`Cc1ccc(-c2cc(C(F)(F)F)nn2-c2ccc(S(N)(=O)=O)cc2)cc1` has an inhibition of 25.2% (WI-38; TNF-α release, inhibitor, ELISA; 10 µM, LPS-stimulated).
`N#Cc1c(-c2ccccc2)[nH]c2ccccc12` gave an inhibition of 70.7% (RAW264.7; NO release, inhibitor, Griess; 50 µM, 20 h, LPS-stimulated).
`CO[C@@]12[C@H](COC(N)=O)C3=C(C(=O)C(C)=C(N)C3=O)N1C[C@@H]1N[C@@H]12` has an inhibition of 100% (U-937; cell growth or viability, ATP luminescence; 10 µM, 72 h).
`CN(C)c1ccc(-c2cc3ccccc3[nH]2)cc1` gave an inhibition of 28.8% (RAW264.7; NO release, inhibitor, Griess; 50 µM, 20 h, LPS-stimulated).
For `COc1ccc2c(c1)c(CC(=O)O)c(C)n2C(=O)c1ccc(Cl)cc1`, the inhibition was 8.1% (WI-38; TNF-α release, inhibitor, ELISA; 10 µM, LPS-stimulated).
`Cc1ccc(-c2cc3ccccc3[nH]2)cc1` gave an inhibition of 39% (RAW264.7; NO release, inhibitor, Griess; 50 µM, 20 h, LPS-stimulated).
`CO[C@@]12[C@H](COC(N)=O)C3=C(C(=O)C(C)=C(N)C3=O)N1C[C@@H]1N[C@@H]12` has an inhibition of 100% (U-937; cell growth or viability, ATP luminescence; 10 µM).

A few entries again:
`Cc1ccc(-c2cc3ccccc3[nH]2)cc1` gave an inhibition of 39% (RAW264.7; NO release, inhibitor, Griess; 50 µM, 20 h, LPS-stimulated).
